Measurements collected from several papers.
Values joined by “and” are separate records of one study, mostly repeats; a detail may differ. ± marks the error that the study gave.

Structure (SMILES)	test	system	conditions	IC50
O=C1CC(Nc2ccc(Cc3nc4ccccc4[nH]3)cc2)C(=O)N1c1ccc(Br)cc1 (stereo not drawn)	CoA-CPM signal reduction, CPM fluorescence thiol	cell-free biochemical	assay interference counter-screen, added: CoA replacing acetyl-CoA	> 125 µM
C=CC[C@@]1(C)NC(=O)CNC(=O)[C@H](Cc2c[nH]c3ccccc23)NC(=O)[C@H](CC(=O)O)NC(=O)[C@H](CCC(N)=O)NC(=O)[C@H](Cc2c[nH]c3ccccc23)NC(=O)[C@H](C(C)C)NC(=O)[C@@H](NC(=O)[C@@H](NC(C)=O)[C@@H](C)CC)CSSC[C@@H](C(=O)N[C@H](C(N)=O)[C@@H](C)O)NC(=O)[C@H](CCCNC(=N)N)NC(=O)[C@H](Cc2c[nH]cn2)NC1=O	complement activation, inhibitor, ELISA, item: C5b-9	normal human serum	–	0.84 ± 0.09 µM
O=C(O)CN(CCN(CC(=O)O)CC(=O)O)CC(=O)O	iron chelation	cell-free	–	66.4 ± 1.07 µM
CC[C@H](C)[C@H](NC(=O)[C@H](CO)NC(=O)[C@H](CCCNC(=N)N)NC(C)=O)C(=O)N[C@H]1CSSC[C@@H](C(=O)N[C@H](C(N)=O)[C@@H](C)O)NC(=O)[C@H](CCCNC(=N)N)NC(=O)[C@H](Cc2c[nH]cn2)NC(=O)[C@H](C)NC(=O)CNC(=O)[C@H](Cc2c[nH]c3ccccc23)NC(=O)[C@H](CC(=O)O)NC(=O)[C@H](CCC(N)=O)NC(=O)[C@H](Cc2ccc3ccccc3c2)NC(=O)[C@H](C(C)C)NC1=O	complement activation, inhibitor, ELISA, item: C5b-9	normal human serum	–	0.65 ± 0.1 µM
Cc1cccc(/C=N/N=C/c2cccc(C)c2)c1	nitric oxide scavenging	–	antioxidant	198 µM
O=C1O[C@H]([C@@H](O)CO)C(O)=C1O	nitric oxide scavenging, Griess	–	30 min, 25 °C, added: sodium nitroprusside 5 mM	1330 ± 49 µM
Clc1cccc(/C=N/N=C/c2cccc(Cl)c2)c1	ferric reducing antioxidant power, FRAP	–	–	1780 µM
Cc1cc(C(C)(C)C)c(O)c(C(C)(C)C)c1	DMPD radical scavenging	–	–	8.72 µg/mL
CCOC(=O)C1=C(CCl)NC(=O)NC1c1ccc(OC)cc1 (stereo not drawn)	nitric oxide scavenging	–	–	266 µM
CCCCC(O)c1ccccc1C(=O)O (stereo not drawn)	platelet aggregation, inhibitor	platelets	added: arachidonic acid 1 mmol/L	350 ± 90 µM
O=S1(=O)C=C(N2CCCCC2)c2ccccc21	CoA-CPM signal reduction, CPM fluorescence thiol	cell-free biochemical	assay interference counter-screen, added: CoA replacing acetyl-CoA	> 125 µM
CCCC[C@@H]1OC(=O)c2ccccc21	platelet aggregation, inhibitor	platelets	added: arachidonic acid 1 mmol/L	500 ± 40 µM
O=C(O)c1cccnc1Nc1cccc(C(F)(F)F)c1	input conductance	vascular smooth muscle cells, guinea pig, AICA arteriole segments in situ	–	48 µM
Fc1ccc(Nc2nc(-c3ccccc3)no2)cc1	CoA-CPM signal reduction, CPM fluorescence thiol	cell-free biochemical	assay interference counter-screen, added: CoA replacing acetyl-CoA	> 125 µM
CC[C@H](C)[C@H](NC(C)=O)C(=O)N[C@H]1CSSC[C@@H](C(=O)N[C@H](C(N)=O)[C@@H](C)O)NC(=O)[C@H](CCCNC(=N)N)NC(=O)[C@H](Cc2c[nH]cn2)NC(=O)[C@](C)(CC)NC(=O)CNC(=O)[C@H](Cc2c[nH]c3ccccc23)NC(=O)[C@H](CC(=O)O)NC(=O)[C@H](CCC(N)=O)NC(=O)[C@H](Cc2c[nH]c3ccccc23)NC(=O)[C@H](C(C)C)NC1=O	complement activation, inhibitor, ELISA, item: C3b	normal human serum	–	0.45 ± 0.14 µM
O=C(Cc1ccc(Cl)cc1Cl)NNC(=S)N=Cc1ccccc1[N+](=O)[O-]	hydroxyl radical scavenging	–	–	63.6 ± 1.73 µM
FC(F)(F)c1ccccc1/C=N/N=C/c1ccccc1C(F)(F)F	ferric reducing antioxidant power, FRAP	–	–	1070 µM
CC(C)(S)[C@H](N)C(=O)O	peroxynitrite scavenging, dihydrorhodamine fluorescence	–	–	5.08 ± 0.52 µM
c1ccc(Nc2nc(-c3ccccc3)ns2)cc1	CoA-CPM signal reduction, CPM fluorescence thiol	cell-free biochemical	assay interference counter-screen, added: CoA replacing acetyl-CoA	> 125 µM
FC(F)(F)c1ccc(/C=N/N=C/c2ccc(C(F)(F)F)cc2)cc1	nitric oxide scavenging	–	antioxidant	1800 µM
CCOC(=O)C1=C(CSC2=NCCS2)NC(=O)NC1c1ccc(OC)cc1 (stereo not drawn)	nitric oxide scavenging	–	–	141 µM
COc1cccc(/C=N/N2C(=O)c3ccccc3NC2c2cccc(OC)c2O)c1O (stereo not drawn)	photosynthetic electron transport	Spinacia oleracea chloroplasts	–	344 µM
CC[C@H](C)[C@H](NC(=O)[C@H](CO)NC(=O)[C@H](CCCNC(=N)N)NC(C)=O)C(=O)N[C@H]1CSSC[C@@H](C(=O)N[C@H](C(N)=O)[C@@H](C)O)NC(=O)[C@H](CCCNC(=N)N)NC(=O)[C@H](Cc2c[nH]cn2)NC(=O)[C@H](C)NC(=O)CNC(=O)[C@H](Cc2c[nH]c3ccccc23)NC(=O)[C@H](CC(=O)O)NC(=O)[C@H](CCC(N)=O)NC(=O)[C@H](Cc2c[nH]c3ccccc23)NC(=O)[C@H](C(C)C)NC1=O	complement activation, inhibitor, ELISA, item: C5b-9	normal human serum	–	0.59 ± 0.05 µM
O=C(Cc1ccc(Cl)cc1Cl)NNC(=S)N=Cc1ccccc1Cl	hydroxyl radical scavenging	–	–	29.1 ± 2.15 µM

Structure (SMILES)	test	system	conditions	IC50
Fc1ccccc1/C=N/N=C/c1ccccc1F	nitric oxide scavenging	–	antioxidant	2870 µM
O=C(O)/C=C/c1ccc(O)c(O)c1	ABTS radical scavenging	–	–	5.24 ± 0.9 µg/mL
Cc1c(CN2CCN(C(=O)[C@H](C)O)CC2)sc2c(N3CCOCC3)nc(-c3cnc(N)nc3)nc12	item: pAkt	patients, gastrointestinal stromal tumour, plasma	–	0.0261 µg/mL
Clc1ccc(/C=N/N=C/c2ccc(Cl)cc2)cc1	ferric reducing antioxidant power, FRAP	–	–	2930 µM
CCOC(=O)C1=C(CCl)NC(=O)NC1c1cccc(C)c1 (stereo not drawn)	nitric oxide scavenging	–	–	210 µM
CCN(CC)c1ccc(/C=N/c2ccc(Br)cc2)c(O)c1	nitric oxide scavenging, sodium nitroprusside	–	–	91.1 µM
O=C1O[C@H]([C@@H](O)CO)C(O)=C1O	hydroxyl radical scavenging	cell-free	–	60.5 ± 1.02 µM
CC[C@H](C)[C@H](NC(=O)[C@H](CO)NC(=O)[C@H](CCCNC(=N)N)NC(C)=O)C(=O)N[C@H]1CSSC[C@@H](C(=O)N[C@H](C(N)=O)[C@@H](C)O)NC(=O)[C@H](CCCNC(=N)N)NC(=O)[C@H](Cc2c[nH]cn2)NC(=O)[C@H](C)NC(=O)CNC(=O)[C@H](Cc2c[nH]c3ccccc23)NC(=O)[C@H](CC(=O)O)NC(=O)[C@H](CCC(N)=O)NC(=O)[C@H](Cc2cccc3ccccc23)NC(=O)[C@H](C(C)C)NC1=O	complement activation, inhibitor, ELISA, item: C3b	normal human serum	–	1.31 ± 0.09 µM
Fc1ccc(/C=N/N=C/c2ccc(F)cc2F)c(F)c1	ferric reducing antioxidant power, FRAP	–	–	> 3000 µM
O=S1(=O)CC(S(=O)(=O)Nc2ccccc2-c2cccs2)c2ccccc21 (stereo not drawn)	CoA-CPM signal reduction, CPM fluorescence thiol	cell-free biochemical	assay interference counter-screen, added: CoA replacing acetyl-CoA	> 125 µM
O=c1cc(-c2ccc(O)c(O)c2)oc2cc(O)c([C@@H]3O[C@H](CO)[C@@H](O)[C@H](O)[C@H]3O)c(O)c12	ABTS radical scavenging	–	–	10.8 ± 0.45 µg/mL
CN1CC(Oc2cnc(C#N)cc2-c2ccn3nc(NC(=O)C4CC4)cc3c2)C1	TNF release	mouse whole blood	added: LPS 150 ng/mL	0.67 µM
O=C1CCC(=O)N1c1ccc(Br)cc1	CoA-CPM signal reduction, CPM fluorescence thiol	cell-free biochemical	assay interference counter-screen, added: CoA replacing acetyl-CoA	> 125 µM
CCN(CC)c1ccc(/C=N/c2ccc(F)c(Cl)c2)c(O)c1	nitric oxide scavenging, sodium nitroprusside	–	–	69.4 µM
Fc1cccc(/C=N/N=C/c2cccc(F)c2)c1	ferric reducing antioxidant power, FRAP	–	–	2900 µM
CC(=O)N[C@@H](CC(N)=O)C(=O)N[C@@H](CCCNC(=N)N)C(=O)N[C@@H](CC(C)C)C(=O)N[C@H]1CSSC[C@@H](C(=O)N[C@H](C(N)=O)[C@@H](C)O)NC(=O)[C@H](CCCNC(=N)N)NC(=O)[C@H](Cc2c[nH]cn2)NC(=O)[C@H](Cc2cccc3ccccc23)NC(=O)CNC(=O)[C@H](Cc2c[nH]c3ccccc23)NC(=O)[C@H](CC(=O)O)NC(=O)[C@H](CCC(N)=O)NC(=O)[C@H](Cc2c[nH]c3ccccc23)NC(=O)[C@H](C(C)C)NC1=O	complement activation, inhibitor, ELISA, item: C5b-9	normal human serum	–	1.2 ± 0.06 µM
OC1CCC(Oc2cccc3cnc(Nc4ccc5nc[nH]c5c4)nc23)CC1 (stereo not drawn)	cell viability	patient-derived ovarian cancer organoids	96 h	0.876 µM
O=C(Cc1ccc(Cl)cc1Cl)NNC(=S)N=Cc1ccccc1O	hydroxyl radical scavenging	–	–	49.8 µM and 28.3 µM
C[C@@H]1O[C@@H](O[C@H]2[C@H](O[C@H]3CC[C@]4(C)[C@H]5CC=C6[C@@H]7CC(C)(C)CC[C@]7(C(=O)O[C@@H]7O[C@H](CO[C@@H]8O[C@H](CO)[C@@H](O[C@@H]9O[C@@H](C)[C@H](O)[C@@H](O)[C@H]9O)[C@H](O)[C@H]8O)[C@@H](O)[C@H](O)[C@H]7O)CC[C@@]6(C)[C@]5(C)CC[C@H]4C3(C)C)OC[C@H](O)[C@@H]2O)[C@H](O)[C@H](O)[C@H]1O	peroxynitrite scavenging, dihydrorhodamine fluorescence	–	–	48.7 ± 0.94 µM
Cc1ccc(SC2=CS(=O)(=O)c3ccccc32)cc1	CoA-CPM signal reduction, CPM fluorescence thiol	cell-free biochemical	assay interference counter-screen, added: CoA replacing acetyl-CoA	> 125 µM
CC[C@H](C)[C@H](NC(C)=O)C(=O)N[C@H]1CSSC[C@@H](C(=O)N[C@H](C(N)=O)[C@@H](C)O)NC(=O)[C@H](CCCNC(=N)N)NC(=O)[C@H](Cc2c[nH]cn2)NC(=O)[C@H](C)NC(=O)CNC(=O)[C@H](Cc2c[nH]c3ccccc23)NC(=O)[C@H](CC(=O)O)NC(=O)[C@H](CCC(N)=O)NC(=O)[C@H](Cc2cn(C)c3ccccc23)NC(=O)[C@H](C(C)C)NC1=O	complement activation, inhibitor, ELISA, item: C5b-9	normal human serum	–	0.49 ± 0.06 µM
O=S1(=O)CC(c2ccccc2)c2ccccc21 (stereo not drawn)	CoA-CPM signal reduction, CPM fluorescence thiol	cell-free biochemical	assay interference counter-screen, added: CoA replacing acetyl-CoA	> 125 µM
CC(=O)N[C@@H](CC(N)=O)C(=O)N[C@@H](CCCNC(=N)N)C(=O)N[C@@H](CC(C)C)C(=O)N[C@H]1CSSC[C@@H](C(=O)N[C@H](C(N)=O)[C@@H](C)O)NC(=O)[C@H](CCCNC(=N)N)NC(=O)[C@H](Cc2c[nH]cn2)NC(=O)[C@H](Cc2cccc3ccccc23)NC(=O)CNC(=O)[C@H](Cc2c[nH]c3ccccc23)NC(=O)[C@H](CC(=O)O)NC(=O)[C@H](CCC(N)=O)NC(=O)[C@H](Cc2cccc3ccccc23)NC(=O)[C@H](C(C)C)NC1=O	complement activation, inhibitor, ELISA, item: C5b-9	normal human serum	–	1.34 ± 0.09 µM
CCN(CC)c1ccc(/C=N/c2ccc(F)cc2)c(O)c1	ferric reducing power, FRAP	–	–	> 400 µM
